Results from different studies.
Every numbered part comes from another study and shows a few of its results, in no order.
Chain of UniProt Q13882 (whole entry, looked up): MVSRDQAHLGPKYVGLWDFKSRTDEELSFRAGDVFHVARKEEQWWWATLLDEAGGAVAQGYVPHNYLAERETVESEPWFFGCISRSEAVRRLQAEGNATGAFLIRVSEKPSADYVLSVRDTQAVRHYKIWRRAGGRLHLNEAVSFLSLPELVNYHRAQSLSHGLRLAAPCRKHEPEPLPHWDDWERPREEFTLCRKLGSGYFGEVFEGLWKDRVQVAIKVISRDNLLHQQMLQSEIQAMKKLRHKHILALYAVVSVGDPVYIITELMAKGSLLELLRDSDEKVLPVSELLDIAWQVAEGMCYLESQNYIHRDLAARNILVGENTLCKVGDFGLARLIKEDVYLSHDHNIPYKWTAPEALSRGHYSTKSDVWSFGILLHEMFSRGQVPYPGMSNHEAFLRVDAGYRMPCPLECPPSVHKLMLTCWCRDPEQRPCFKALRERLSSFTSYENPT
Chain of UniProt Q9NRH2 (whole entry, looked up): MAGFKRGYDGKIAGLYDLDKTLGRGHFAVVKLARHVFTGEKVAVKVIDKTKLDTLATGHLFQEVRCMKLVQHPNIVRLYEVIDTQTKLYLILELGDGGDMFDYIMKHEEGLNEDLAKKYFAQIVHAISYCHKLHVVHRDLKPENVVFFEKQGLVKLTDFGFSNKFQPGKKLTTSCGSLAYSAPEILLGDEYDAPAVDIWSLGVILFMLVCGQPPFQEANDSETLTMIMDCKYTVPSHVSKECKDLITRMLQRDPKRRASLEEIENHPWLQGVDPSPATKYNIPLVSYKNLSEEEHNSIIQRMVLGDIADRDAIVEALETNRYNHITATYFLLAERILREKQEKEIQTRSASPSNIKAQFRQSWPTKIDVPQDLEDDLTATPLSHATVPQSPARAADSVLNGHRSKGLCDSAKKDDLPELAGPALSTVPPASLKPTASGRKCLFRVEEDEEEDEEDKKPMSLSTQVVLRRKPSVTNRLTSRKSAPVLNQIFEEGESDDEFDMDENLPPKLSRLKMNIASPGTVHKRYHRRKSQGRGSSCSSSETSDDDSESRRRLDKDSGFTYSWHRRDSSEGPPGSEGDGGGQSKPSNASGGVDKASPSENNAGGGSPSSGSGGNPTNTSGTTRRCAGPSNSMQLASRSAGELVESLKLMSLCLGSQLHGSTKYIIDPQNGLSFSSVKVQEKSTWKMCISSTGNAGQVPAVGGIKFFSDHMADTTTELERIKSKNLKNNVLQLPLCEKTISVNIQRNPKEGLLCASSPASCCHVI
Chain of UniProt Q9Y2U5 (whole entry, looked up): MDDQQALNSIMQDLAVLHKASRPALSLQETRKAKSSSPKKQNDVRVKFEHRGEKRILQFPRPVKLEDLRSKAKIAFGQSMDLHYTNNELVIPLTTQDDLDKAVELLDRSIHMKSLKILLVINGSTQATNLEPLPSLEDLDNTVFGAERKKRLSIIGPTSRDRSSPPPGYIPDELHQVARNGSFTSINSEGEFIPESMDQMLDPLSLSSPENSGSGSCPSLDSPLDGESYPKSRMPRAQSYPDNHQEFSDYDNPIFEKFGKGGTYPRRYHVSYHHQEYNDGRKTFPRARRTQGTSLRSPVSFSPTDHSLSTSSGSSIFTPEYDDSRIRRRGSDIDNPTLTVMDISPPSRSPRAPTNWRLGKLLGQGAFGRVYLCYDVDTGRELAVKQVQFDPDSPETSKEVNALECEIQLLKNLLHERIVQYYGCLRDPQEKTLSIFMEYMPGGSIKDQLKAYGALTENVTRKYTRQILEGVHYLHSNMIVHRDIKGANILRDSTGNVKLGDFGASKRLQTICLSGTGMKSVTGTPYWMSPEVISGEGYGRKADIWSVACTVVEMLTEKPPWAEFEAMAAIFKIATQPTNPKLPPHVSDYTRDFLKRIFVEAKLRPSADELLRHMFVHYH
Chain of UniProt O15111 (whole entry, looked up): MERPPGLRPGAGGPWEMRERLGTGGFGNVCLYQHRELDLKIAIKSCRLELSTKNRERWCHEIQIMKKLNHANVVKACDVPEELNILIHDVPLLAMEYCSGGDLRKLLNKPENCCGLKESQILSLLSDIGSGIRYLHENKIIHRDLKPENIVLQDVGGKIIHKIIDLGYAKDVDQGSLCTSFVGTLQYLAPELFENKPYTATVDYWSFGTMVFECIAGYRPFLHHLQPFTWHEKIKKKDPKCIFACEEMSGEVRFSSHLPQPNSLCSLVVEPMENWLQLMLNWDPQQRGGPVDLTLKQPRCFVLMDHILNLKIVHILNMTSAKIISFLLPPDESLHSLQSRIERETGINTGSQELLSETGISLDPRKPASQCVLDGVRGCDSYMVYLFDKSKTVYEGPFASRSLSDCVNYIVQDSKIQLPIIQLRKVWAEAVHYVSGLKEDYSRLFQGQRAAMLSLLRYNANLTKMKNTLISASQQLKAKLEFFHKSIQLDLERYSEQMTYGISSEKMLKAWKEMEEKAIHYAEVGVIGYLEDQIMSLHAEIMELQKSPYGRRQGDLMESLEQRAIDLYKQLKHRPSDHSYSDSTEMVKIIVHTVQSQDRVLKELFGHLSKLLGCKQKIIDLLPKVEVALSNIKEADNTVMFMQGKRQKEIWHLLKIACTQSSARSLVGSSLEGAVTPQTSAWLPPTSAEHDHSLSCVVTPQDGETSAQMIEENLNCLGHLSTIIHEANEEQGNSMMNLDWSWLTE
Chain of UniProt Q16832 (whole entry, looked up): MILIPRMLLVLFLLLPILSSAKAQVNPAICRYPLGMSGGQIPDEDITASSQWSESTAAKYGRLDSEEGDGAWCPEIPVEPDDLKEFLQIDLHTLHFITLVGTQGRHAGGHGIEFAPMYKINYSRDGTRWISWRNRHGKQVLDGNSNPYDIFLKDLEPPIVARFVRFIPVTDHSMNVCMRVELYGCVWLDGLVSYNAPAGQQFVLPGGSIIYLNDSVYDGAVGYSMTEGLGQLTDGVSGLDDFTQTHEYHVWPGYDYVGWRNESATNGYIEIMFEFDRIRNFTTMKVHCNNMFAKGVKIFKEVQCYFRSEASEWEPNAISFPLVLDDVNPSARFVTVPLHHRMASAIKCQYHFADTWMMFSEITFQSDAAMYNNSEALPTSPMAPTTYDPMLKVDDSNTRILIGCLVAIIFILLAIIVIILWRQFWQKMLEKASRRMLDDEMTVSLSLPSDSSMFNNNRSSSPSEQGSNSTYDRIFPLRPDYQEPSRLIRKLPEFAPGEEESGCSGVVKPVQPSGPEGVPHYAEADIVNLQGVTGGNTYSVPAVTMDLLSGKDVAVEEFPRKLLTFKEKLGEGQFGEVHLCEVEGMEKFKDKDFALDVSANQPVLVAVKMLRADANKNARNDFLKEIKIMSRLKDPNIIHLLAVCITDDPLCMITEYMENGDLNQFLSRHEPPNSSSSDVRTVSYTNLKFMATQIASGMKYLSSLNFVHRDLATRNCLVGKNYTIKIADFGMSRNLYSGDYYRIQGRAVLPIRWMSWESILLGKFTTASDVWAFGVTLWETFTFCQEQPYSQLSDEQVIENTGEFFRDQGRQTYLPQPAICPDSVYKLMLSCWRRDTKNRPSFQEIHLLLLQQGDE
Chain of UniProt P29322 (whole entry, looked up): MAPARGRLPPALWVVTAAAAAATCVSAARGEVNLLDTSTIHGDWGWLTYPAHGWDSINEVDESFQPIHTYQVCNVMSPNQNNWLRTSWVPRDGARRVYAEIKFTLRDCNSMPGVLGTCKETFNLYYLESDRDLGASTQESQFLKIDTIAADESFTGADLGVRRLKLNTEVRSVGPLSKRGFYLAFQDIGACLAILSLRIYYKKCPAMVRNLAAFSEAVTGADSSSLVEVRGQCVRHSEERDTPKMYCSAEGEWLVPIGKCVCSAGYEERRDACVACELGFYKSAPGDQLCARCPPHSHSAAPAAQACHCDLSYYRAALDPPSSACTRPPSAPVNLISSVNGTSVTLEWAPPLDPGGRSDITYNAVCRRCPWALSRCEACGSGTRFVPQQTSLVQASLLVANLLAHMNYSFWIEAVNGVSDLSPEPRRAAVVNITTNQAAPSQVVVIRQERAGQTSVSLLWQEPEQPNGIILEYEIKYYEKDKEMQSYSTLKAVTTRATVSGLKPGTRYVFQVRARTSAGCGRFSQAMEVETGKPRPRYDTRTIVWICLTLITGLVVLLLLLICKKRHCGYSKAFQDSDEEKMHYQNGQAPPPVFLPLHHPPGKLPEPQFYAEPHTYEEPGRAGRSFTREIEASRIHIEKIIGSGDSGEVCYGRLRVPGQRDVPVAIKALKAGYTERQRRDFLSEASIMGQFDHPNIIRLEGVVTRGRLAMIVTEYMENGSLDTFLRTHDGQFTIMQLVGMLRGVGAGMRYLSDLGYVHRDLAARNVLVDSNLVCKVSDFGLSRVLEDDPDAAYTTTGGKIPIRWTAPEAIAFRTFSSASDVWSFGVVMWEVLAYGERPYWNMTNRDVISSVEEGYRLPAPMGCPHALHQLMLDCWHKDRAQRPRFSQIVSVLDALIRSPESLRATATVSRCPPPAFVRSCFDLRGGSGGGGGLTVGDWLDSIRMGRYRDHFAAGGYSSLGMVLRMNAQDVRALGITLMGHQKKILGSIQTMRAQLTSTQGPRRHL
Chain of UniProt P23443 (whole entry, looked up): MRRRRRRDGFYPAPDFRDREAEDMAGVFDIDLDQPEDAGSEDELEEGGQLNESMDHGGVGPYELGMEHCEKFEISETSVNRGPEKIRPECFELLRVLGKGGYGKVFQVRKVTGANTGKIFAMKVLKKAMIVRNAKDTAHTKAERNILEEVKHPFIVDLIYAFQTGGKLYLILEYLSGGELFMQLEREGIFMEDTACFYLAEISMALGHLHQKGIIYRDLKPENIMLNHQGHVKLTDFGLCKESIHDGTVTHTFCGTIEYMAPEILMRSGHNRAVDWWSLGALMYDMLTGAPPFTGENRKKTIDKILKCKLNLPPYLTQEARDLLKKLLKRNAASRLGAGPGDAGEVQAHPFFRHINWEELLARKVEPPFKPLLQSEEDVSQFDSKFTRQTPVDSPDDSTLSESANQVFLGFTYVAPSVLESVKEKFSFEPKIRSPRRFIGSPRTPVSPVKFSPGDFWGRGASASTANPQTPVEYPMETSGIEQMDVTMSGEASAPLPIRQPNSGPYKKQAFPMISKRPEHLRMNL

Sample 1 — technique: competition with immobilised ligand; concentration: 1 µM
SMILES: CO[C@@H](C)c1c(Nc2ccc([C@@H](N(C)C(=O)C3CCS(=O)(=O)CC3)C(F)(F)F)cc2)cnc2cc(Cl)nn12
target	read-out	remaining binding
EPHA8 (Homo sapiens, UniProt P29322)	cell-free assay	91%
CHUK (Homo sapiens, UniProt O15111)	cell-free assay	100%
Non-receptor tyrosine-protein kinase TYK2, JH1 (TYK2, Homo sapiens, UniProt P29597)	cell-free assay	98%
STK26 (Homo sapiens, UniProt Q9P289)	cell-free assay	100%
PHKG2 (Homo sapiens, UniProt P15735)	binding	44%
MAP3K2 (Homo sapiens, UniProt Q9Y2U5)	cell-free assay	100%
DDR2 (Homo sapiens, UniProt Q16832)	cell-free assay	100%
RPS6KB1 (Homo sapiens, UniProt P23443)	cell-free assay	90%
EGFR (Homo sapiens, UniProt P00533, A750P/del747-749)	cell-free assay	87%
FGFR1 (Homo sapiens, UniProt P11362)	cell-free assay	91%
PTK6 (Homo sapiens, UniProt Q13882)	cell-free assay	100%
ULK3 (Homo sapiens, UniProt Q6PHR2)	cell-free assay	97%
SNRK (Homo sapiens, UniProt Q9NRH2)	cell-free assay	100%
FLT3 (Homo sapiens, UniProt P36888, D835V)	cell-free assay	52%

Sample 2 — species: mouse, EL4 tumour-bearing; sample: EL4 tumour; dose: dose not given; baseline: vehicle
SMILES: CC(=O)N[C@@H](Cc1c[nH]c2ccccc12)C(=O)N[C@@H](CCC(=O)C=[N+]=[N-])C(=O)OC(C)C
refers to	log2 fold change
maltose	0.955
creatinine	1.17
orotidine	0.751

Sample 3 — species: human; sample: microsomes or S9; concentration: 2 µM; time: 0.5 h
Structure (SMILES)	remaining compound
Cc1nc2nc(N3C(=O)CCC3=O)nn2c(C)c1Cl	69.9%
COCCCNC(=O)N1Cc2c(sc3c2CCCC3)-n2cccc2C1c1cc(F)cc(F)c1 (stereo not drawn)	2.25%
Nc1ncnc2c1c(-c1cccc(OCc3ccccc3)c1)cn2C1CC(CN2CCCC2)C1 (stereo in doubt)	89.9%

Sample 4 — technique: protein binding microarray; form: double-stranded DNA, one strand shown; sample: in vitro; concentration: not given; baseline: not given; direction: higher = stronger binding
Target: Histone acetyltransferase KAT6A, both winged helices, GST fusion (KAT6A, Homo sapiens, UniProt Q92794, residues 1-181)
Notes: 8-mer, flanks averaged, mean of 2 arrays, mostly near background
Residues (chain): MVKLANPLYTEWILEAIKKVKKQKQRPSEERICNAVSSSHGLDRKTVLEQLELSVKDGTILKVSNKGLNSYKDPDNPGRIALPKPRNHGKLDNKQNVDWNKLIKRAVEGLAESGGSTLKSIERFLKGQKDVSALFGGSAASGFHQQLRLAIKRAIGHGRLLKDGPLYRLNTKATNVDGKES
Sequence	E-score
AGCTCCCA	-0.197
AATCATAT	0.0503
GACGTACC	-0.0415
CTAGCAGC	-0.127
CGTCAATC	0.143
GTAATGGA	-0.0503
GCATAGCC	-0.0186
ACAGGAGG	-0.204

Sample 5 — cell line: HaCaT; concentration: 100 µM; time: 36 h
Compound	viability [%]
CCOc1cc(CC(=O)N[C@@H](CC(C)C)c2ccccc2N2CCCCC2)ccc1C(=O)O	97.5
CCCCCCCCN[C@@H](C)[C@H](O)c1ccc(SC(C)C)cc1 (racemic)	6.1
NCC[C@H](O)C(=O)N[C@@H]1C[C@H](N)[C@@H](O[C@H]2O[C@H](CN)[C@@H](O)[C@H](O)[C@H]2O)[C@H](O)[C@H]1O[C@H]1O[C@H](CO)[C@@H](O)[C@H](N)[C@H]1O	98.1

Single results of other studies
SMILES	target or system	assay	system	conditions	measurement	value
CC(C)n1cnc(-c2ccc(F)cc2)c1-c1ncc(C(=O)Nc2ccc(N3CCN(C)CC3)cc2)[nH]1	–	phase 2a trial	idiopathic pulmonary fibrosis patients	30 mg once daily, adverse event grade 4	patients with constipation	0%
COc1cc(N)c(Cl)cc1C(=O)NC1CCN(CCCOc2ccc(F)cc2)CC1OC.O (stereo not drawn)	Sarcocystis neurona	parasite growth	–	10 µM, secondary screen	inhibition	-22%
